Experimental data gathered from unrelated publications.
Every numbered part comes from another study and shows a few of its results, in no order. Positions count from the first letter of the parent shown.

Series 1
Target: TAR DNA-binding protein 43, full length, His tag (TARDBP, Homo sapiens, UniProt Q13148, residues 1-414)
Method: RNA Bind-n-Seq
Form: RNA
Sample: in vitro
Concentration: 20 nM
Notes: 6-mer, flanks averaged, single round
Together with: 150 mM LiCl
Baseline: input library
Direction: higher = stronger binding
Strand | 6-mer enrichment (R)
CUUGUC | 0.933
CUCCCA | 1.08
CGGCCU | 0.926
AUUGUU | 1.07
GGGAAU | 1.07
AAUCGC | 0.815
CCUAUG | 0.947
CGGAUC | 0.881
UAGUGG | 1.18
UUCUGA | 0.867
ACCCAU | 0.973
CCCCUA | 1.18
AAUUCU | 0.922

Series 2
Target: Histone acetyltransferase KAT6A, winged helix 2, GST fusion (KAT6A, Homo sapiens, UniProt Q92794, residues 85-181)
Method: protein binding microarray
Form: double-stranded DNA, one strand shown
Sample: in vitro
Concentration: not given
Notes: 8-mer, flanks averaged, mean of 2 arrays, mostly near background
Baseline: not given
Direction: higher = stronger binding
Residues (chain): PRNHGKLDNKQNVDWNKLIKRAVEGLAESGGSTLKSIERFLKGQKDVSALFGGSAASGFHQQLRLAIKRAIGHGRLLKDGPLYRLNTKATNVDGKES
Strand | E-score
GTCTCACA | -0.0608
ATAATATA | 0.151
AGCAAGCA | -0.085
ACAATTCT | 0.149
AGTGGTCG | 0.0446
CCCATCCC | 0.0362
ATGCATCG | 0.0269
CCGCATAA | 0.209
CAAAAACC | 0.0921
GCCATCTA | -0.153
GAGGGGGA | 0.0229
CAACCCGC | 0.1
ATCGCACA | 0.122
TGGGACCA | -0.0183
AAGGATCT | -0.13
AATCAGTA | -0.00233
CCTCTCCG | 0.0508
GTCGCTTA | 0.0833
CGCAGCAC | 0.0412
GCTATCAC | -0.023
CATGAAAA | -0.00153
AAAGTACC | 0.0309

Series 3
Target: Interferon regulatory factor 3, full length, phosphomimetic (IRF3, Homo sapiens, UniProt Q14653, residues 1-427, S386D/S396D/S398D/S402D/T404D/S405D)
Method: protein-binding microarray
Form: double-stranded DNA, one strand shown
Sample: in vitro
Concentration: 2540 nM top
Notes: 60-bp whole probe
Together with: salmon DNA 0.4 mg/ml
Baseline: random background probes
Direction: higher = stronger binding
All sequences stand within: GCCTAGCAC … GTCTTGATTCGCTTGACGCTGCTG
Residues (chain): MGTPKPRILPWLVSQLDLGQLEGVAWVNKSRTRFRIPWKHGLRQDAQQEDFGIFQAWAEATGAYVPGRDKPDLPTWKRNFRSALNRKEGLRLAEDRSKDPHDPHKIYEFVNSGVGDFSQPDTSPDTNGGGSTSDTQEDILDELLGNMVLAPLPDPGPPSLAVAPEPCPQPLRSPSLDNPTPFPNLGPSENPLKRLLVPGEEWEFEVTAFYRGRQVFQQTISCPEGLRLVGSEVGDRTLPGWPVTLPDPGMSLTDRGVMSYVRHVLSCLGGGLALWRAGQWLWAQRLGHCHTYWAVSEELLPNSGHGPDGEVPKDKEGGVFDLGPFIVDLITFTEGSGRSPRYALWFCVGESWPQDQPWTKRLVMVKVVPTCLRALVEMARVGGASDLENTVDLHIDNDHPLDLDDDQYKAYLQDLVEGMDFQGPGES
Strand | fitted relative affinity
GACGGTATCGGATTCGGGACGTGCTAG | 4.66 z-score
TCATCTTTTATGCTCTTACTGTGCTAG | 1.07 z-score
TTAGGACTCCTACTGCTTTAGTGCTAG | -0.141 z-score
TTAGGTTTCCTTCTTCTTTAGTGCTAG | 9.74 z-score
TAGATATTATATCTGTGTTAGTGCTAG | 0.0498 z-score
GACTGACTGGGTTTCGGGACGTGCTAG | 1.23 z-score
TTAGGTTTCAGACTGGATTAGTGCTAG | 2.32 z-score
CTAGGTATCCTTTTCCTTTAGTGCTAG | 8.33 z-score
TTAGATATCGGGACTGGACTAGTGCTA | -0.018 z-score
GTCCCTGAATGAAAACATCATGTGCTA | 0.374 z-score
TTAGGATTCCTTATCCTTTAGTGCTAG | 3.99 z-score
TTAGATTTCATTCTCGATTAGTGCTAG | 3.84 z-score

Series 4
Target: CCNB1, cyclin fold, Cln2 fusion (human)
Method: yeast growth competition, sequencing
Sample: yeast
Notes: strong parent motif
Baseline: not given
Direction: higher = stronger binding
Parent: BRCA2 docking peptide (human); PSIKRNLLNEFDR
Substitution | normalised enrichment score
PSIKRNLLNEFNR [D12N] | 2.47
WSIKRNLLNEFDR [P1W] | 4.23
PSGKRNLLNEFDR [I3G] | 0.349
PSIKRRLLNEFDR [N6R] | 0.733
PSIKRNALNEFDR [L7A] | 0.474
PSIKRTLLNEFDR [N6T] | 0.798
PSIKRNLLNEFVR [D12V] | 1.55
PSIKRNLKNEFDR [L8K] | 0.704
PSIKRNLLNKFDR [E10K] | -0.651
PSIKRNLLNEFER [D12E] | 2.83
PSIKRNLLNEDDR [F11D] | 0.175
PSIKRNLLNGFDR [E10G] | 0.327
PSIKRNHLNEFDR [L7H] | 0.037
PAIKRNLLNEFDR [S2A] | 1.25
PSIKRNLCNEFDR [L8C] | 1.09
PSIKENLLNEFDR [R5E] | -1.04

Series 5
Target: RNA binding protein fox-1 homolog 2, RRM domain, GST-SBP tag (RBFOX2, Homo sapiens, UniProt O43251-10, residues 100-194)
Method: RNA Bind-n-Seq
Form: RNA
Sample: in vitro
Concentration: 365 nM
Notes: natural RNA segment, single round, ends assumed
Baseline: no-protein control
Direction: higher = stronger binding
Residues (chain): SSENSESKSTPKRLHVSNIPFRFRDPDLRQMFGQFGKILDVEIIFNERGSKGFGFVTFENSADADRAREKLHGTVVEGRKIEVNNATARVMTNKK
Strand | RBNS enrichment (R)
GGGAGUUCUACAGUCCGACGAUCCUAACUUAUUUAUGUUAAAAAGAGAUUUUUUUUUAAUCUAGACAAUAUACAAGCCAAAGUGGCAUGUUUUGUGCAUUUGUAAAUGCUGUAUUGGAUAGACUAGCCCCCCCUGGAAUUCUCGGGUGCCAA | 1.91
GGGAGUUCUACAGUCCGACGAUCUCAUUUUUAAAAAAAGAUGAAGCAUUUCAAAAUCUUGUUAACCUGGUUAUCUCUUGGUAUCUCUCCUGACAUAUUUGUUUUGCUUUAAAUUGGAUUAAAUGGUUUACAGGUGGAAUUCUCGGGUGCCAA | 0.43
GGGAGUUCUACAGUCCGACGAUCGGCUGAGUCCAGCUGUUCUUUAAGAACAGCAGUUUCAGCUCUGACCAUUCUGAUUCCAGUGACACUUGUCAGGAGUCAGAGCCUUGUCUGUUAGACUGGACAGCUUGUGGUGGAAUUCUCGGGUGCCAA | 10.2
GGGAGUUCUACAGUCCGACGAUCAAUUUGGGGUGGGAUAGCAGGUCAGUUGAUCUUCUGCAGGAAGGUGCAGCUUUUCCAUAUCAGCUCAACCACGCCGCCAGUCCAUUCUUAAGGAACUGCCGACUAGGACUUGGAAUUCUCGGGUGCCAA | 0.24
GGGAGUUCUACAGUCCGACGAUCCAGGCUAUGGGAUCCUUGGCCACCUUGCUUCAUGAUUUGAUACAUUUGUUGUAUUCAAAAACUUGAACUGUAGGAUGCCAUUAAGAGUCUGUUUAUAUUUUUGGAAUAUUUGGAAUUCUCGGGUGCCAA | 0.491
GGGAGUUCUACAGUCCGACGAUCUAUCUUAGGAGUUUAAUUUGCCCUUCUCUCCCCAUCUUCCCUCAGUUCCCAUAAAACCUUCAUUACACAUAAAGAUACACGUGGGGGUCAGUGAAUCUGCUUGCCUUUCCUGGAAUUCUCGGGUGCCAA | 1.01
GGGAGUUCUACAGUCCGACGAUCGCUAGUGGAUAUUGGAGUUACAUGAGCUACGUGUUAAUAUUCAGUCUCCAGAAUAAACGUCCCAGCGUUGCCCUGACCUGGCUGGAGGGCGCAUUGCUGUCUGUGCCUGUUGGAAUUCUCGGGUGCCAA | 0.459
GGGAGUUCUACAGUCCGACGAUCGCCACAGCAGUGAGGAGAUUUGUGUGCUGGGGCACUCAAAAGCCUCUACAAGAUCUUCGUUAAGAGUCAAGCUGCCGGUCAGGAGUCUGACAUUUGAAUCGUGUUGUGAUUGGAAUUCUCGGGUGCCAA | 0.369

Some of these lines once more (series 3):
Strand | fitted relative affinity
TCATCTTTTATGCTCTTACTGTGCTAG | 1.07 z-score
TTAGGACTCCTACTGCTTTAGTGCTAG | -0.141 z-score
TTAGGTTTCCTTCTTCTTTAGTGCTAG | 9.74 z-score
TAGATATTATATCTGTGTTAGTGCTAG | 0.0498 z-score
GACTGACTGGGTTTCGGGACGTGCTAG | 1.23 z-score
TTAGGTTTCAGACTGGATTAGTGCTAG | 2.32 z-score
CTAGGTATCCTTTTCCTTTAGTGCTAG | 8.33 z-score
